Measured values pooled from the literature.
Each line is one published result; not all experiments were run side by side. “And” joins repeats or separate records; there may be more than shown. ± marks the error that the study gave.
SLC5A1: Sodium/glucose cotransporter 1 (SLC5A1, Homo sapiens, UniProt P13866)
KDR: Vascular endothelial growth factor receptor 2 (KDR, Homo sapiens, UniProt P35968)
PDGFRB: Platelet-derived growth factor receptor beta (PDGFRB, Homo sapiens, UniProt P09619)
EGLN1: Egl nine homolog 1 (EGLN1, Homo sapiens, UniProt Q9GZT9)
NMBR: Neuromedin-B receptor (NMBR, Homo sapiens, UniProt P28336)

| Structure (SMILES) | target | assay | system | conditions | IC50 |
| --- | --- | --- | --- | --- | --- |
| OCc1cccc(S[C@@H]2O[C@H](CO)[C@@H](O)[C@H](O)[C@H]2O)c1 | SLC5A1 | transporter uptake, inhibitor, radiometric | – | – | 12 µM |
| C=CCc1ccc(O)c(-c2cc(CC=C)ccc2OCCCCCCCCCC[P+](c2ccccc2)(c2ccccc2)c2ccccc2)c1 | mitochondrial complex I | complex I-dependent oxygen consumption rate, inhibitor | G-361 | 24 h | 0.19 µM |
| O=C(O)c1ccc(Cn2sc3ccccc3c2=O)cc1 | Histone deacetylase 5 (HDAC5, Homo sapiens, UniProt Q9UQL6) | enzyme activity, inhibitor | – | – | 3.3 µM |
| COc1cc2ncnc(Oc3ccc(Nc4nccc5[nH]cc(-c6cccc(F)c6)c(=O)c45)cc3F)c2cc1OC | Hepatocyte growth factor receptor (MET, Homo sapiens, UniProt P08581) | kinase activity, inhibitor, HTRF | – | – | 0.0676 µM |
| COc1cc2nccc(Oc3ccc(NC(=S)N4CCC(F)(F)CC4)c(Cl)c3)c2cc1C(N)=O | KDR | – | – | – | 0.194 µM |
| Cc1ccccc1/C=C/c1nc2ccccc2c(=O)[nH]1 | Nucleoside transporter 1 (Plasmodium vivax, UniProt A5K8B0) | [3H]adenosine uptake | target-expressing yeast | – | 0.0075 ± 0.004 µM |
| COc1cc2nccc(Oc3ccc(NC(=S)NC4CC=C(F)CC4)c(Cl)c3)c2cc1C(N)=O (stereo not drawn) | PDGFRB | – | – | – | 0.4 µM |
| O=C1C2CC3CC1CC(C(=O)N1CCN(c4ccc([N+](=O)[O-])c5ncccc45)CC1)(C3)C2 | Toll-like receptor 7 (TLR7, Homo sapiens, UniProt Q9NYK1) | reporter gene | – | – | 0.23 µM |
| COC(=O)C1=CNC=C(C(=O)OC)C1c1ccc(F)c(C(F)(F)F)c1 | Intermediate conductance calcium-activated potassium channel protein 4 (KCNN4, Homo sapiens, UniProt O15554, R352H) | inside-out patch clamp | – | gain-of-function mutant, with: 1 µM free Ca2+ | < 0.02 µM |
| CCOC(=O)c1nn(-c2ccccc2)cc1CN(C)[C@@H]1CCSC1 | D(4) dopamine receptor (DRD4, Homo sapiens, UniProt P21917) | cAMP, antagonist | – | – | 10.8 µM |
| CCn1c(-c2nc3ccc(C(=O)N4CCCC(N)C4)cc3n2C)cc2ccccc21 (stereo not drawn) | Protein-arginine deiminase type-4 (PADI4, Homo sapiens, UniProt Q9UM07) | binding, fluorescence polarisation | – | with: 10 nM tracer displacement, 0 mM Ca2+ | > 100 µM |
| Nc1ccc(C(=O)NOCc2ccccc2)cc1[N+](=O)[O-] | NAD-dependent protein deacylase sirtuin-6 (SIRT6, Homo sapiens, UniProt Q8N6T7) | enzyme activity, inhibitor, fluorescence | – | – | 76.4 µM |
| Nc1nc(Cl)nc2c1ncn2Cc1cc(OCC(F)F)cc(OC(F)F)c1 | Dual specificity calcium/calmodulin-dependent 3',5'-cyclic nucleotide phosphodiesterase 1C (PDE1C, Homo sapiens, UniProt Q14123) | enzyme activity, inhibitor | – | – | 6.18 µM |
| O=C(O)CCC(=O)NNC(=O)c1ccncc1 | EGLN1 | inhibitor, AlphaScreen | – | bimodal curve, rough estimate, with: 2 µM 2-oxoglutarate | > 300 µM |
| COc1cc2nccc(Oc3ccc(NC(=S)NC4CC4)c(Cl)c3)c2cc1C(=O)NCC(F)(F)F | KDR | – | – | – | 0.0795 µM |
| CC(C)CCC[C@@H](C)[C@H]1CCC([C@@H]2CC[C@H]3C[C@@H](O)CC[C@]3(C)[C@@H]2O)[C@]1(C)CC(=O)O (stereo partly drawn) | Bile acid receptor (NR1H4, Homo sapiens, UniProt Q96RI1) | transactivation, antagonist, SHP promoter luciferase reporter | HEK293T | with: GW4064 10 µM | 1.6 µM |
| CCC(c1nnnn1Cc1cccs1)N1CCC(c2nc3cccc(F)c3s2)CC1 (stereo not drawn) | Deoxyribonuclease-1 (DNASE1, Bos taurus, UniProt P00639) | enzyme activity, inhibitor, fluorescence DNA degradation | – | pH 7.5, with: FITC-labelled DNA substrate | 32 µM |
| COc1cc2nccc(Oc3ccc(NC(=S)NCc4ccccc4)c(Cl)c3)c2cc1C(N)=O | PDGFRB | – | – | – | 0.361 µM |
| O=c1c2ccccc2sn1-c1ccccc1 | Polyamine deacetylase HDAC10 (HDAC10, Homo sapiens, UniProt Q969S8) | enzyme activity, inhibitor | – | – | > 10 µM |
| COc1ccc(-c2cc(C(F)(F)F)nc(S(=O)(=O)CCC(=O)Nc3ccc(C)cc3)n2)cc1 | Bifunctional 3'-5' exonuclease/ATP-dependent helicase WRN (WRN, Homo sapiens, UniProt Q14191) | DNA unwinding, inhibitor, TAMRA dequenching | – | 10 nM full-length enzyme, 5 µM trap DNA, with: 500 nM DNA substrate, 60 µM ATP | 0.235 µM |
| O=c1c(O[C@@H]2O[C@H](CO[C@@H]3O[C@H](CO)[C@@H](O)[C@H](O)[C@H]3O)[C@@H](O)[C@H](O)[C@H]2O)c(-c2ccc(O)cc2)oc2cc(O)cc(O)c12 | SLC5A1 | transporter uptake, inhibitor | – | – | 76 µM |

| Structure (SMILES) | target | assay | system | conditions | IC50 |
| --- | --- | --- | --- | --- | --- |
| CC1CC(=O)N(CCCCN)N=C1c1ccc(NC(=O)N2Cc3ccncc3C2)cc1 (stereo not drawn) | Nicotinamide phosphoribosyltransferase (NAMPT, Homo sapiens, UniProt P43490) | enzyme activity, inhibitor | – | – | 0.0008 µM |
| COc1cc2nccc(Oc3ccc(NC(=S)N[C@H](C)CO)c(Cl)c3)c2cc1C(N)=O | KDR | – | – | – | 0.0551 µM |
| CC(=O)NC(c1ccccc1)(c1ccccc1)c1ccccc1Cl | Intermediate conductance calcium-activated potassium channel protein 4 (KCNN4, Homo sapiens, UniProt O15554) | ion current, inhibitor, patch clamp | – | – | 1.2 µM |
| O=C(O)CCC(=O)NNC(=O)c1cnc2ccccc2c1 | EGLN1 | inhibitor, AlphaScreen | – | bimodal curve, rough estimate, with: 2 µM 2-oxoglutarate | 21 µM |
| COc1cc2nccc(Oc3ccc(NC(=S)NCCN4CCOCC4)c(Cl)c3)c2cc1C(N)=O | KDR | – | – | – | 0.398 µM |
| OC[C@@H]1NC[C@H](O)[C@@H]1O | Lysosomal alpha-mannosidase (Drosophila melanogaster, UniProt Q9VKV1) | enzyme activity, inhibitor | – | with: pNP-mannoside | 7500 µM |
| Cn1c(=O)c2c(nc(CN3CCN(C(=O)C4CC4)CC3)n2Cc2ccccc2)n(C)c1=O | Peroxisomal multifunctional enzyme type 2 (HSD17B4, Homo sapiens, UniProt P51659) | – | – | – | > 57 µM |
| CCCC[C@H](NC(=O)[C@H](Cc1ccccc1)NC(=O)[C@H](Cc1c[nH]cn1)NC(=O)CCNC(=O)[C@@H](NC(=O)[C@H](C)NC(=O)[C@H](Cc1c[nH]c2ccccc12)NC(=O)[C@H](CC(N)=O)NC(=O)[C@H](N)Cc1ccc(O)cc1)C(C)C)C(N)=O | NMBR | NMBR activity, cell-based | – | – | 0.0054 to 0.042 µM |
| C=CC1C(OC2OC(CO)C(O)C(O)C2O)OC=C(C(=O)OC)C1CC(=O)O (stereo not drawn) | Alpha-glucosidase MAL12 (MAL12, Saccharomyces cerevisiae S288c, UniProt P53341) | enzyme activity, inhibitor, absorbance | – | – | > 100 µM |
| O=C(O)[C@H](Cc1ccc2ccccc2c1)NC(=O)C1(c2ccc3ccccc3c2)CCN(S(=O)(=O)c2ccc([N+](=O)[O-])cc2)CC1 | Gag-Pol polyprotein, integrase (gag-pol, Human immunodeficiency virus 1, UniProt P12497) | integrase catalytic activity, inhibitor, HTRF | HIV-1 | with: LEDGF/p75 | 16 µM and 17 µM |
| CCOC(=O)/C=C/CN(CC)CCCCN1c2ccccc2CCc2ccc(Cl)cc21 | E3 ubiquitin-protein ligase NEDD4, HECT domain (Homo sapiens, UniProt P46934) | ubiquitination, inhibitor, TR-FRET | – | 1 h preincubation | 1.77 µM |
| C[C@](C(=O)NC1CCC(F)(F)CC1)(c1cncnc1)N(C(=O)[C@H](F)Cl)c1ccc(OC(F)(F)F)cc1 | Cytochrome P450 2D6 (CYP2D6, Homo sapiens, UniProt P10635) | enzyme activity, inhibitor | – | 10 (unit not given) | 32.8 µM |
| COc1cc2nccc(Oc3ccc(NC(=S)NCC(C)(C)O)c(Cl)c3)c2cc1C(N)=O | KDR | – | – | – | 0.245 µM |
| C[C@H]1CCCC[C@@H]1NC(=O)/C(C#N)=C/c1cn(-c2ccccc2)nc1-c1cccs1 | Prostaglandin G/H synthase 2 (PTGS2, Ovis aries, UniProt P79208) | enzyme activity, inhibitor, absorbance | – | – | 0.76 µM |
| C[C@]1(c2nc3c(C(N)=O)cccc3[nH]2)CCCN1CCOCCOCCOCCOCCOCCOCCNc1cccc2c1C(=O)N(C1CCC(=O)NC1=O)C2=O (stereo partly drawn) | Poly [ADP-ribose] polymerase 2 (PARP2, Homo sapiens, UniProt Q9UGN5) | enzyme activity, inhibitor | – | – | 0.021 µM |
| Cn1c(=O)c2c(nc(OC3CCN(C(=O)C4CC4)CC3)n2Cc2cccc(Cl)c2)n(C)c1=O | Aldehyde dehydrogenase 1A1 (ALDH1A1, Homo sapiens, UniProt P00352) | – | – | – | 0.545 ± 0.174 µM |
| CC(C)C[C@@H](CC(=O)N[C@@H](Cc1ccsc1)C(N)=O)NC(=O)[C@H](CCCNC(=N)N)NC(=O)c1ccc(CNC2CCNCC2)cc1 | Cyclin-A2, with CDK2 (CCNA2, Homo sapiens, UniProt P20248) | binding to cyclin groove, inhibitor, fluorescence polarization competition | – | – | > 100 µM |
| CC(C)C[C@H]1CN[C@H](C(N)=O)CSSC[C@@H](N)C(=O)N[C@@H](CCC(N)=O)C(=O)N[C@@H](Cc2c[nH]c3ccccc23)C(=O)N[C@@H](C)C(=O)N[C@@H](C(C)C)C(=O)N[C@H](C)C(=O)N[C@@H](Cc2c[nH]cn2)C(=O)N1 | NMBR | inositol phosphate generation, antagonist | Balb 3T3 expressing NMBR | with: neuromedin B 1 nM | > 10 µM |
| CCOC(=O)C(CS)NCCNC(CS)C(=O)OCC (stereo not drawn) | Carbamate kinase (Giardia intestinalis, UniProt A8BB85) | enzyme activity, ATP luminescence | – | – | 8.19 µM |
| N=C(N)NCCC[C@@H]1NC(=O)[C@H](Cc2c[nH]c3ccccc23)NC(=O)[C@H](CCCNC(=N)N)NC(=O)[C@H](Cc2c[nH]c3ccccc23)NC(=O)[C@H](CCCNC(=N)N)NC(=O)[C@H](Cc2c[nH]c3ccccc23)NC(=O)[C@H](CCCNC(=N)N)NC(=O)[C@H](Cc2c[nH]c3ccccc23)NC(=O)[C@H](CCCNC(=N)N)NC(=O)[C@H](Cc2c[nH]c3ccccc23)NC(=O)[C@H](CCCNC(=N)N)NC(=O)[C@H](Cc2c[nH]c3ccccc23)NC(=O)[C@H](CCCNC(=N)N)NC(=O)[C@H](Cc2c[nH]c3ccccc23)NC1=O | Cyclin-dependent kinase 2, with cyclin A1 (CDK2, Homo sapiens, UniProt P24941) | enzyme activity, inhibitor | – | – | 1.17 µM |
| N#Cc1nc(N2CCOCC2)nc(N(CCC2CCNCC2)Cc2ccc(F)cc2)n1 | Procathepsin L (CTSL, Homo sapiens, UniProt P07711) | enzyme activity, inhibitor, fluorescence | – | – | 0.969 µM |

Some of these lines once more:
| Structure (SMILES) | target | assay | system | conditions | IC50 |
| --- | --- | --- | --- | --- | --- |
| CCC(c1nnnn1Cc1cccs1)N1CCC(c2nc3cccc(F)c3s2)CC1 (stereo not drawn) | Deoxyribonuclease-1 (DNASE1, Bos taurus, UniProt P00639) | enzyme activity, inhibitor, fluorescence DNA degradation | – | pH 7.5, with: FITC-labelled DNA substrate | 32 µM |
| COc1cc2nccc(Oc3ccc(NC(=S)NC4CC4)c(Cl)c3)c2cc1C(=O)NCC(F)(F)F | KDR | – | – | – | 0.0795 µM |
| CC(C)CCC[C@@H](C)[C@H]1CCC([C@@H]2CC[C@H]3C[C@@H](O)CC[C@]3(C)[C@@H]2O)[C@]1(C)CC(=O)O (stereo partly drawn) | Bile acid receptor (NR1H4, Homo sapiens, UniProt Q96RI1) | transactivation, antagonist, SHP promoter luciferase reporter | HEK293T | with: GW4064 10 µM | 1.6 µM |
